Measurements gathered from unrelated publications.
Each numbered part is a random draw from the data of one study; scales do not carry over between parts.
UniProt P28482, sequence (whole entry, looked up): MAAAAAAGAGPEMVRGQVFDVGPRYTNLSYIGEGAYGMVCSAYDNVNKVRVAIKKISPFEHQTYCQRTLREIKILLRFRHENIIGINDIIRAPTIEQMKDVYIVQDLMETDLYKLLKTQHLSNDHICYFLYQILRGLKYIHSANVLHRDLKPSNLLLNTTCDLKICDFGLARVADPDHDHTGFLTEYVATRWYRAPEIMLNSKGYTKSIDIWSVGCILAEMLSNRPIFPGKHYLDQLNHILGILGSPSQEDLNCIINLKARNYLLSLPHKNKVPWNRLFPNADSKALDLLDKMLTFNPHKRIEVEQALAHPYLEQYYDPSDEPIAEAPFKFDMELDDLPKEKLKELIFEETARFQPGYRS
UniProt Q9H4A3, sequence (whole entry, looked up): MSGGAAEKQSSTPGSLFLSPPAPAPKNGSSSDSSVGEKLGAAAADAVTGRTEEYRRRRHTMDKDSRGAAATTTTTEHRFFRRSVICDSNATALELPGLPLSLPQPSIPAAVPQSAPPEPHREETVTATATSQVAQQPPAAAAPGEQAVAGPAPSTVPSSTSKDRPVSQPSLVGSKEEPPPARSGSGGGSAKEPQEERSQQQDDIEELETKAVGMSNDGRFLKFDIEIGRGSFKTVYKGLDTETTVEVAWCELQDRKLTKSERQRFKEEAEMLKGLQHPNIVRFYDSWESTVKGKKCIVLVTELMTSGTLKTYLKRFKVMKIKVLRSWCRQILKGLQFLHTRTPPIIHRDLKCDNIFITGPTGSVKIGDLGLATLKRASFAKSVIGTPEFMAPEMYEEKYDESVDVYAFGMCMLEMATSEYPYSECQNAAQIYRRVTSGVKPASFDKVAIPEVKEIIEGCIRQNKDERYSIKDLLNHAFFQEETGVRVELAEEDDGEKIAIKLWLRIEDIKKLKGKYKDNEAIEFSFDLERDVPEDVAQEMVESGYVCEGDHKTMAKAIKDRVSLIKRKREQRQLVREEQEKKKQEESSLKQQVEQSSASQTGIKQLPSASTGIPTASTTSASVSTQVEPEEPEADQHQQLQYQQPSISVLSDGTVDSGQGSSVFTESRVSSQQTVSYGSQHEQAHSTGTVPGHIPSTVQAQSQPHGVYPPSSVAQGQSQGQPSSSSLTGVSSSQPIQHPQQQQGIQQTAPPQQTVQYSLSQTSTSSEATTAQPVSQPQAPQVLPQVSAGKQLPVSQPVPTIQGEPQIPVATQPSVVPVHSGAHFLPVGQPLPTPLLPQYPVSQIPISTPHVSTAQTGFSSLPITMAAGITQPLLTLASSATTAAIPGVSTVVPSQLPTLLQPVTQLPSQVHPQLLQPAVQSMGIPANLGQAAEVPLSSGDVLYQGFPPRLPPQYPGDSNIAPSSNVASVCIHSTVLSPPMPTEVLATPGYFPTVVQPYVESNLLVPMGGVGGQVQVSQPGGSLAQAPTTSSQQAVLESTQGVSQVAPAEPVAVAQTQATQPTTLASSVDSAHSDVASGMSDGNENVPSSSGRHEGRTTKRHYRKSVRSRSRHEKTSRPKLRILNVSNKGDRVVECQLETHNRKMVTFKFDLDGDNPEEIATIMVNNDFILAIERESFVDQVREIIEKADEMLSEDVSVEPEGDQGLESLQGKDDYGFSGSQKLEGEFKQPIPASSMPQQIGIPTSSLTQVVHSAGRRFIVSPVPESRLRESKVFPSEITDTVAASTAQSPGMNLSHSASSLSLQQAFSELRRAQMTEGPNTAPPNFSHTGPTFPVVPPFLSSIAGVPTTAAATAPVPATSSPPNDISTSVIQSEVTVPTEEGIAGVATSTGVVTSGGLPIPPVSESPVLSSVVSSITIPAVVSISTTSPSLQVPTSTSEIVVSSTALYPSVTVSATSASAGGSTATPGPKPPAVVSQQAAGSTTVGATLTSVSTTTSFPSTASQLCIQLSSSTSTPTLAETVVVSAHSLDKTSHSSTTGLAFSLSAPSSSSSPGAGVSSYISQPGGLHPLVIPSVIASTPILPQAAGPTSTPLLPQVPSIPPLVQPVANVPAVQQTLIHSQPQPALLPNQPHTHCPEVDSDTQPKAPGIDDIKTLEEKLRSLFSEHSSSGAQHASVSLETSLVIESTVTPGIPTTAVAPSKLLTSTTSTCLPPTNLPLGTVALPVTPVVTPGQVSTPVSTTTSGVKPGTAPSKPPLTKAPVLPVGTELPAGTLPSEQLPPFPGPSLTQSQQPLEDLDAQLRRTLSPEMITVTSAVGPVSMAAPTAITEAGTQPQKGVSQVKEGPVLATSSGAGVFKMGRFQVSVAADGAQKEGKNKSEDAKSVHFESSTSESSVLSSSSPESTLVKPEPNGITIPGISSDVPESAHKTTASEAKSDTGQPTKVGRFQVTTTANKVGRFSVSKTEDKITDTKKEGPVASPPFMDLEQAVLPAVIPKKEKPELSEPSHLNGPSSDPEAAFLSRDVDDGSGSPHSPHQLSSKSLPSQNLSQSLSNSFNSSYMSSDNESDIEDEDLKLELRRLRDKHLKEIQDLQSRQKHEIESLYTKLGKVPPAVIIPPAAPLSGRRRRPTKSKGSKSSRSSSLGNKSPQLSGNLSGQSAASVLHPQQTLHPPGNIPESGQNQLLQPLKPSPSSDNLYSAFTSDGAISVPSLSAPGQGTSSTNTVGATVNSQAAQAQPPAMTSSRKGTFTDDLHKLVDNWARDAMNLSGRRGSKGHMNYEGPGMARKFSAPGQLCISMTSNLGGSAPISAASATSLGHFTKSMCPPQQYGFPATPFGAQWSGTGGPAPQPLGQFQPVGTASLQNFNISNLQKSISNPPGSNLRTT
UniProt Q13131, sequence (whole entry, looked up): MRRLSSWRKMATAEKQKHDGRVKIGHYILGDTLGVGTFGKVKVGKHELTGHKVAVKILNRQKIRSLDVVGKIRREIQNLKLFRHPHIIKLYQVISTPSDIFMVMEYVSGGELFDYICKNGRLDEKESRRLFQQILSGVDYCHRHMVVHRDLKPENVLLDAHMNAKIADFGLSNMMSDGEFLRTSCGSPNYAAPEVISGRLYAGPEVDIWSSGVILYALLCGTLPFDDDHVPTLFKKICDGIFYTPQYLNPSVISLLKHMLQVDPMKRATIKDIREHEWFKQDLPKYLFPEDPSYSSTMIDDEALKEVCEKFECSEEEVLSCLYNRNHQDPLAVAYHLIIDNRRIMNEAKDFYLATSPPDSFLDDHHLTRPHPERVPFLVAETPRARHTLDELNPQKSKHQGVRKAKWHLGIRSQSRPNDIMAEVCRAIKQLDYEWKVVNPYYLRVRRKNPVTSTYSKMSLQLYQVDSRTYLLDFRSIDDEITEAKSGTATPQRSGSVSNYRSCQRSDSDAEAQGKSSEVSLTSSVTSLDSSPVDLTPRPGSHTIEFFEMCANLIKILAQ
UniProt Q9P0L2, sequence (whole entry, looked up): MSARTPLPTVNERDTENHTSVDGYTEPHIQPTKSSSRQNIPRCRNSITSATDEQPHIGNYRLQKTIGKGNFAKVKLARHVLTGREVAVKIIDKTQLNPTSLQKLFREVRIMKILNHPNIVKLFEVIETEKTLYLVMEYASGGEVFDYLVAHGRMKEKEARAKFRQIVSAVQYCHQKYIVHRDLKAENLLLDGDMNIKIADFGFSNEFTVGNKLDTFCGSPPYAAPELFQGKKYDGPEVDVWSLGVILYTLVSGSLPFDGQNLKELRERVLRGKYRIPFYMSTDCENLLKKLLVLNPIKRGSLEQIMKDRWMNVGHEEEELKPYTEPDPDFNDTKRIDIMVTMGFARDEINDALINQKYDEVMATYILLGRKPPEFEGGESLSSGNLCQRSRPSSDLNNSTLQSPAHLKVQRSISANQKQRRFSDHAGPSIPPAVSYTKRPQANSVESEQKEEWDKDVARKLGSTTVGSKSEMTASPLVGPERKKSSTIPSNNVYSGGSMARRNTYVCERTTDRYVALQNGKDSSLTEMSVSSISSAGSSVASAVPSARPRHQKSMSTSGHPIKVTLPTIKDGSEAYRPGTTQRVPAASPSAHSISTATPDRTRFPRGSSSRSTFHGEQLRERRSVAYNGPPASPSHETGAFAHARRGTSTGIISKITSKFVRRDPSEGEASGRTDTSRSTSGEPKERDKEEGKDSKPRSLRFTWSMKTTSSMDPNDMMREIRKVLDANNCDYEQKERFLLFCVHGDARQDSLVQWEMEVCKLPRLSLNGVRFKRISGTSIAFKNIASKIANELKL
UniProt P37023, sequence (whole entry, looked up): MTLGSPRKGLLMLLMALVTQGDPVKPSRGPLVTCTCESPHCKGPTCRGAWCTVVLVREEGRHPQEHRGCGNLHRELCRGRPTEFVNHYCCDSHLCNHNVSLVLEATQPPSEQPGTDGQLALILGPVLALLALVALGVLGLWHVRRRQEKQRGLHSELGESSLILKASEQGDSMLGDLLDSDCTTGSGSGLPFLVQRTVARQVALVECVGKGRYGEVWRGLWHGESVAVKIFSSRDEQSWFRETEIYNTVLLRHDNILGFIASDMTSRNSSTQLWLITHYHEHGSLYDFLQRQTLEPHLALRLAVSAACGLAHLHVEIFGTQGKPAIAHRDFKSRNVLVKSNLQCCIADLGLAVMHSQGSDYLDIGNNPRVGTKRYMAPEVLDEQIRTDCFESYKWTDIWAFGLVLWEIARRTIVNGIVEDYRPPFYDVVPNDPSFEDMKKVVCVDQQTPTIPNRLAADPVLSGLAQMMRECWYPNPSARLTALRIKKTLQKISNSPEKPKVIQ

Set 1
Target: Beta-1 adrenergic receptor (ADRB1, Homo sapiens, UniProt P08588)
UniProt P08588, sequence (whole entry, looked up): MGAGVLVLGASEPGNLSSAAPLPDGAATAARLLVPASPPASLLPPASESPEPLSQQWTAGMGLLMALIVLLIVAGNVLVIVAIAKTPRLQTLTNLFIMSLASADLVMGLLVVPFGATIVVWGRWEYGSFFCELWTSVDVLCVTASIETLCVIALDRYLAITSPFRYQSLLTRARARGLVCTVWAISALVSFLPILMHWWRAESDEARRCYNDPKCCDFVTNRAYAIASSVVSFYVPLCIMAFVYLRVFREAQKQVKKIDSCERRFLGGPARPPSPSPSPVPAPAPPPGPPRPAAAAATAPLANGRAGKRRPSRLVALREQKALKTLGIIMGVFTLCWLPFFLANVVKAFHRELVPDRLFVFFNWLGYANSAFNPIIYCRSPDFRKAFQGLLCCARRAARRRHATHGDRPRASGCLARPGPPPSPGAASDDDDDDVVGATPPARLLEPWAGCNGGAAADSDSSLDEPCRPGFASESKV
Mode: agonist
COc1cc(CNCc2ccc(C)c(F)c2F)ccc1OCC(O)CN1CCC(O)CC1 (stereo not drawn) gave an EC50 of 2.24 µM.
With COc1ccc(CN2C(=O)COC[C@@H]2[C@H](O)c2ccc(NC(=O)Cc3ccccc3)cc2)cc1 the EC50 was at least 100 µM.
With C#CCNC(=O)[C@@H]1Cc2cn(CC#CC)c3cccc(c23)[C@H](CC(C)C)N1 the EC50 was at least 100 µM.

Set 2
SMILES: CO[C@H]1CC[C@H](CNc2ccc(S(=O)(=O)NC(=O)c3ccc(N4CCN(CC5=C(c6ccc(Cl)cc6)CC(C)(C)CC5)CC4)cc3Oc3cnc4[nH]ccc4c3)cc2[N+](=O)[O-])CC1
Observed: cell-free assay
Method: competition with immobilised ligand
Tested at: 1 µM
The remaining binding was 84% (Mitogen-activated protein kinase 1 (MAPK1, Homo sapiens, UniProt P28482)).
The remaining binding was 100% (Serine/threonine-protein kinase WNK1 (WNK1, Homo sapiens, UniProt Q9H4A3)).
For 5'-AMP-activated protein kinase catalytic subunit alpha-1 (PRKAA1, Homo sapiens, UniProt Q13131): remaining binding read 73%.
It gave 100% for remaining binding (Muscle, skeletal receptor tyrosine-protein kinase (MUSK, Homo sapiens, UniProt O15146)).
For Serine/threonine-protein kinase RIO1 (RIOK1, Homo sapiens, UniProt Q9BRS2): remaining binding read 100%.
It gave 74% for remaining binding (Serine/threonine-protein kinase MARK1 (MARK1, Homo sapiens, UniProt Q9P0L2)).
The remaining binding was 72% (Activin receptor type-1-like (ACVRL1, Homo sapiens, UniProt P37023)).
Fibroblast growth factor receptor 3 (FGFR3, Homo sapiens, UniProt P22607) — remaining binding: 95%.

Set 3
SMILES: COc1cc(C(=O)N2CCC(N3CCN(C)CC3)CC2)ccc1Nc1ncc2c(n1)N(C)c1ccccc1C(=O)N2C
It gave -6.4% for inhibition (ZAP70 (human); probe labelling, KiNativ, item: activation loop peptide; PBMC lysate (human); 0.1 µM, together with: ADP acyl-phosphate probe).
For NIM1 (mouse); probe labelling, KiNativ ADP probe; mouse brain lysate; 0.1 µM, LYS1 labelled site: inhibition read 0.1%.
For RSK2 kinase domain 2 (human); probe labelling, KiNativ, item: Lys1 site peptide; PBMC lysate (human); 0.1 µM, together with: ADP acyl-phosphate probe: inhibition read 0.4%.
human PBMC; probe labeling, inhibitor, KiNativ profiling, item: FYAVkVLQK; cell lysate; concentration not given, LYS1 site, together with: ATP acyl-phosphate probe 0.1 µM — inhibition: -3.7%.

Set 4
Organism: Plasmodium berghei
Mode: inhibitor
Cells: Huh-7
Strain: GFP-expressing sporozoites, liver stage
Tested at: 10 µM
Time: 24 h
Baseline: untreated control
O=C(Nc1ccc(C(=O)O)c(O)c1)c1ccccc1 gave an infection rate of 81.7%.
For O=C1CC2(CCCC2)CC(=O)N1CCCCN1CCN(c2ncccn2)CC1, the infection rate was 72.5%.
CCOC(=O)C1=C(COCCN)NC(C)=C(C(=O)OC)C1c1ccccc1Cl (stereo not drawn) gave an infection rate of 65.6%.

Repeated from above (set 2):
For Serine/threonine-protein kinase RIO1 (RIOK1, Homo sapiens, UniProt Q9BRS2): remaining binding read 100%.
It gave 74% for remaining binding (Serine/threonine-protein kinase MARK1 (MARK1, Homo sapiens, UniProt Q9P0L2)).
